Measurements from different studies.
Parts stem from different laboratories: compare values within a part only.

Block 1
Target: Sal-like protein 4, full length isoform B (SALL4, Homo sapiens, UniProt Q9UJQ4-2, residues 1-616)
Method: universal PBM
Molecule type: double-stranded DNA, one strand shown
Medium: in vitro
Tested at: not given
Notes: 8-mer, flanks averaged, mean of replicates
Reading: higher = stronger binding
Target sequence (chain): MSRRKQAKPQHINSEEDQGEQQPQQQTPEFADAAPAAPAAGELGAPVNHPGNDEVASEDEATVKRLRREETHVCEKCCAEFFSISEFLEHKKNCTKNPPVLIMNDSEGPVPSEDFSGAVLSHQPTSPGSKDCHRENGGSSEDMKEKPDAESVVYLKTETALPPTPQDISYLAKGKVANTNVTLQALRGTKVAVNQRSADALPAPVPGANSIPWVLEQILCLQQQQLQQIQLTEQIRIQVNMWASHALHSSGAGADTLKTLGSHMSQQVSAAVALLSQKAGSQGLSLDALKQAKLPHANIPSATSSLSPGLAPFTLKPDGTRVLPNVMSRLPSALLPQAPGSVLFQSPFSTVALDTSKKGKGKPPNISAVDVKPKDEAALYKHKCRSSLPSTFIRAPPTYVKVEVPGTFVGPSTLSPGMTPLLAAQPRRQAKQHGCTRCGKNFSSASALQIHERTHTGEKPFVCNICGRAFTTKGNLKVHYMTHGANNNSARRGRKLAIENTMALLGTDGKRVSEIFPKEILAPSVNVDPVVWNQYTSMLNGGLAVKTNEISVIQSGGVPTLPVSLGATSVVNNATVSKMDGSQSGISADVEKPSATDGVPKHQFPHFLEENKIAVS
Strand	E-score
CAAGGGTA	-0.0585
AGAGCAGG	-0.0335
ATACCCCA	-0.0301
TACCGTCA	-0.108
CGTGTGAC	-0.137
CCGTCCTA	-0.00089
AGAAGTTG	-0.0894
AGACTCAA	-0.0133
CGGGCTTC	-0.388
AAGGCCAC	-0.206
ATATGCGC	0.174
ATCGATCG	0.0422
CACGGTAC	-0.307
ACGCTAGA	0.0143
TATAAACA	0.37
CAACCTGC	-0.236
TCAGGGCA	-0.153
TCTTTTCA	0.148
AACCGGAG	-0.194
GCCGTCCC	-0.231
GTCGGTTA	-0.0137
CCAGAGGA	-0.191
TACGAGCA	-0.023
AGCTGGGG	-0.183
CGAATTCA	-0.0121

Block 2
Target: RNA binding protein fox-1 homolog 2, RRM domain, GST-SBP tag (RBFOX2, Homo sapiens, UniProt O43251-10, residues 100-194)
Method: RNA Bind-n-Seq
Molecule type: RNA
Medium: in vitro
Tested at: 365 nM
Notes: natural RNA segment, single round, ends assumed
Reference: no-protein control
Reading: higher = stronger binding
All sequences stand within: GGGAGUUCUACAGUCCGACGAUC … UGGAAUUCUCGGGUGCCAA
Target sequence (chain): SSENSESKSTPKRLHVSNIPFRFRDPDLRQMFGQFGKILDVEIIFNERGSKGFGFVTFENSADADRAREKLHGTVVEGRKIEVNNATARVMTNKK
Strand	RBNS enrichment (R)
CCAUGGCCACUCCCUGCCCCCAGCCUGGCUGGACAGCAAGGAAUCCACAGCCCACACGUGAGCUCCCUCCUCACCCCCAGGCAGGGAAGCCCCUCCUGCCAGUCCCUGUC	0.32
UUCACUUGUGUAUUUUACAGUGGUAGUAAAAUAUGUCUUCAACUGAUCAUUGCACUUAAAAUAUUAAUACUUCGGAGGAUAAAGCAGAAGGGUCAUAAGCUCAAGGCCAU	0.568
UGACACACUUGGCCCUCGAUGUAUGAAAUCUUGACCAGAAUUAAAAGCAAAGACGUCUCUCCUGUCCAGCUUGUGUGGGUCUGUGUGUCCUGCCCUUAGUCAUUCCUAGU	0.864
CAAGGAGAGUGGCAUAGGAGGGAAAAGCAUAUGUGGCUGAAACCUGUAAGUUGGUGUUGGUUAUGCAGAAAUGUGUAACAGAUCAAACGGUCCUCUCAAGUGUCUAUUAG	0.297
AGGAGGCCCAUUUUCUGCCUGGCAGGGGGCAGGUCUGUGCCCUCCCGCUGACUCCUGCUGUGUCCUGAGGUGCAUUUCCUGUUGUACACACAAGGGCCAGGCUCCAUUCU	0.345
UUUCAAAGCCAGCUAUCUCCUGCACUAGCUGUCUGUGGCCUGUAGAACAAGCUUUUUUCACCAAGCUGGUCUCUGGCCAGGGUGCAGGAAAGUCCACUUCAGCCACCAGG	0.367
UAGAAAAAAGAAAUGUUAGUAUCUCAAUUACACCAACUGUGCAAAUGAACUUUGAUAAAAUAGAAAUAAUCUACAUUGGCCUUUGUGAAAUCUGGGGAAGAGCUUUAGGA	0.547
UUAAAUGAGCUCUUUUGCAGAUAGCACAUUCAGUAGCCUUAUUUUGUUGAUGGAAUACUGUAUCAUAUGCUCAACUCUGAAAACCUUGAACACGGCCAAAAUCCAUAAAG	0.276
UUAGUCCAAGGCCUUUUUCAUAAACUGAGCCUCUUUUCAAUUAUUUCAAUGGGACAGGAACUAGGAUAGAUGUGAUUCCUGCAUUUUUUUACCUUAAAUCUGCCUUUGUU	0.757
AUAUAAUAUGAAAUGCUAUGUAAAGUUUUCUAUGUAAAAAUAUUAUGUAUAAUACUAUUAAAAUAUCCCAUGCUUUGAUCAGGUGGUACAUCAAUAAAAUUUUAAAAAGU	0.656
GGGAAGGGAGAUCACCACGUCCACAGAAUCACUACAUUUAGAGUUGAGCUCUCAGUUGUACCUCCAACCCCUUUCUCCGGGACCAGCUAUGUGGUCCAGCUGUUUUAAUU	0.399
CGAAGGAAGCUUAAAAAUUCUAUAUCCAGAUAAAAGACCACAAUAAAGCAAAAGUCACCUAUACCGUAAUAGAAAUGUUGCUAUCUCUAUACAAGUGCACUUUGAUCUGU	0.377

Block 3
Target: PABPC1L2, full length, GST fusion (mouse, UniProt A0ABA7IW68)
Method: RNAcompete
Molecule type: RNA
Medium: in vitro
Tested at: 20 nM
Notes: 7-mer, probes averaged, single round
Reference: mean of 7-mers
Reading: higher = stronger binding
Target sequence (chain): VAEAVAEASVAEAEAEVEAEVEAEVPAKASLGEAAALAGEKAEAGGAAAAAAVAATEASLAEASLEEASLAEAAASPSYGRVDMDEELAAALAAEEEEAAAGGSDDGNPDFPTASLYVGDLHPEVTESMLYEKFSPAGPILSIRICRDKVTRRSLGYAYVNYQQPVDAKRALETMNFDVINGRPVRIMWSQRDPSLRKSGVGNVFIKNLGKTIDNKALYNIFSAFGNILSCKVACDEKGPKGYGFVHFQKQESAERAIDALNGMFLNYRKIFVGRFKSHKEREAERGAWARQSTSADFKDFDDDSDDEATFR
Strand	7-mer Z-score
ACACCGU	-0.0881
GUUUCUC	-0.405
GUUUGGA	-0.269
AAAUGCC	0.996
CCUAACU	-0.273
GAUGAUG	-0.2
AUGGUAG	-0.0409
CGGGGUA	-0.0192
CAACUGC	-0.0264
AAAGUUG	1.43
AUAGGGG	0.394
GGGUUUU	-0.151
ACUACUG	-0.151
ACAGCAA	0.0932
GUAGCCC	-0.289
GAAUGAC	-0.113
AGGAAGA	0.2

Block 4
Target: Centromere-binding protein 1, full length, N-terminal tag (CBF1, Saccharomyces cerevisiae, UniProt P17106, residues 1-351)
Chain of UniProt P17106 (whole entry, looked up): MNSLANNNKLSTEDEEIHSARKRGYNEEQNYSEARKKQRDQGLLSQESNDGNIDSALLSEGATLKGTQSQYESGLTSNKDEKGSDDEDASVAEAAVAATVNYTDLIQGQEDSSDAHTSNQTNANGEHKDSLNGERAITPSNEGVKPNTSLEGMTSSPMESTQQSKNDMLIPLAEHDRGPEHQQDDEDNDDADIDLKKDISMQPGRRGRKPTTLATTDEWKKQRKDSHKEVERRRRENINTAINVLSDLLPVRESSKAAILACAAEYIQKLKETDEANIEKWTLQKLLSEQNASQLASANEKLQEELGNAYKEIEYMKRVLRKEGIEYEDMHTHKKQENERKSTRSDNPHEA
Method: protein-binding microarray
Molecule type: double-stranded DNA, one strand shown
Medium: in vitro
Tested at: 0.8 µM
Notes: whole 60-bp probe, no competitor
Reading: higher = stronger binding
All sequences stand within: … GTCTTGATTCGCTTGACGCTGCTG
Strand	fluorescence intensity [a.u.]
CTACGGGTGCAATGTCACGTGCACATCACATATTTC	26200
CTATCGAGCTCAAGGTGAGTCACGATGCAGAACTTC	1080
CTATCATTTACTATTCTCGTGATATTTTAGTAGTTC	1130
CTACATAAGGGTTGTCCCGTGGTCGGAGCCCTTTTC	623
GAAGGTGAATTGAATCATGTGCCAAGGTTTTGTTAG	1690
CTATGGTCAGATCATCAGGCCAACGGCAAATGCTTC	512
GAAGAAATATCATGTTGTGATGTTAGAAAATATTAG	560
CTAGCTACGTATACAGGTGAGTATATTCATGCGTTC	507
GAAAGAAATACTGCAGGTGAGGCTGAAAGGTCGTAG	520
CTAATTGAAGATGTACAGGTGATTAATTACGTCTTC	791
CTATCTCGAAGTGGTCACGTGCGGGTCTAGGCCTTC	20500
CTACGCTGCCTTCCGTACGTCACAACGCATACATTC	552
CCTAACTACTATAACTACGTGGCATAGCTTCGTACA	506
GAAAAAATTTTTTTTTGCACCACGTGATTTTTTTAG	17000
CTACTTTTTCCTCGCCACGTTTTCACTCAGATCTTC	671
CTAGAGATGGGAGGCAACGTGATGTGGTTCATATTC	1170
GAACCAAAAACGGACGTCACAAATTACTGCTTTTAG	518
GAATATTTTTCTTTCCTCATGACCATTTAGTATTAG	829
GAAGTATCATAGTAAAACGTGTGTTGAATGAAGTAG	613
GAAATCAGAAGGATTCTCACCTGGTTGCAACCATAG	516
TGTACGAAGCTATTTGGTGACACTATAGTAGTTAGG	489
GAATTCCGGAGGGCGCACGAGCCACCCGGGTCGTAG	542
GAAAGAAAAAGATATCAGCAGAATACAAAAAATTAG	524
CCTAACTACTATAGTCATGAAAAATAGCTTCGTACA	514

Block 5
Target: Histone acetyltransferase KAT6A, winged helix 2, GST fusion (KAT6A, Homo sapiens, UniProt Q92794, residues 85-181)
Method: protein binding microarray
Molecule type: double-stranded DNA, one strand shown
Medium: in vitro
Tested at: not given
Notes: 8-mer, flanks averaged, mean of 2 arrays, mostly near background
Reference: not given
Reading: higher = stronger binding
Construct (chain): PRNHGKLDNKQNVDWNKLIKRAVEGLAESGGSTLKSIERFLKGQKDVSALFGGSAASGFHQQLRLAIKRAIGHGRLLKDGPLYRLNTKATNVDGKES
Strand	E-score
TAGCTTAA	-0.0148
CACCAAGG	-0.123
CCTTCCTC	-0.0186
ACGTCAGG	-0.205
GGCGTACC	0.185
CTGTTCAA	-0.0157
GTGACGGA	-0.125
GGTCGCGA	0.255
ATCGTTAA	-0.119
AAGCCCGT	-0.198
ATCTTGCC	0.135
GTCTTTGA	0.0281
ATATCTTG	0.086
CATTGAGG	-0.0975
ATTATAAG	0.0428
AGAACAAT	0.112
ATAGGAAG	0.034
GGACAAAA	0.0263
AGAAAGTG	-0.0721
ACTTGCCT	-0.126
AGATCGAG	-0.017
CTGGCCGA	0.147
CTCCGCGC	0.172
CAATTTCG	-0.145
AGTCCGCA	0.164

Block 6
Target: Ras GTPase-activating protein-binding protein 1, full length (G3BP1, Homo sapiens, UniProt Q13283)
Chain of UniProt Q13283 (whole entry, looked up): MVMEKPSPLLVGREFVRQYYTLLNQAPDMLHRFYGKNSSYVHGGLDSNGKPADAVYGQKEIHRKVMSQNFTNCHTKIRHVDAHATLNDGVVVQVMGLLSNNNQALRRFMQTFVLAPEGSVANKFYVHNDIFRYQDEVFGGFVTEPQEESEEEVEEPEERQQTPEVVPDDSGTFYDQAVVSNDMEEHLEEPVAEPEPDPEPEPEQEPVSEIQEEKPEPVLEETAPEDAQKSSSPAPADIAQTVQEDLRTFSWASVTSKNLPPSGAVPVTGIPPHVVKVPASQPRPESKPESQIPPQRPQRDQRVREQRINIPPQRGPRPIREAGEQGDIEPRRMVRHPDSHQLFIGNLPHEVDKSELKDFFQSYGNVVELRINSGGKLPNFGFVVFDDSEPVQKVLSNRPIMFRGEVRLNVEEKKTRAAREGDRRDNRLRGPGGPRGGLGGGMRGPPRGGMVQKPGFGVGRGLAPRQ
Method: RNA Bind-n-Seq
Molecule type: RNA
Medium: in vitro
Tested at: 200 nM
Notes: whole 134-nt RNA, ends assumed
Together with: 150 mM LiCl
Reference: input library
Reading: higher = stronger binding
Each molecule: 7-deaza-guanosine replaces G
All sequences stand within: GGGAGUUCUACAGUCCGACGAUC … UGGAAUUCUCGGGUGUCAAGG
Strand	log2 enrichment
UGUGCUACACAUCGUAUGUACCGAAUCGGGGCCCCCCCGGGGCCCCCCCGGGCCCCCCCGGGAAAGUAUUAUGUUACGCCGUUCGGAUCU	-0.434
CCUGUGCUACACAUCGUAUGUACCGAAUCGGCCCCCCGGGGCCCCCCGGGGCCCCCCGGGGAAAGUAUUAUGUUACGCCGUUCGGAUCUG	-2.24
AGUCCUGUGCUACACAUCGUAUGUACCGAAUCGGCCCCGGGGCCCCGGGCCCCGGGGAAAGUAUUAUGUUACGCCGUUCGGAUCUGCACU	-2.06
UGGCCCUGGUGGCAUGCGGGGAGGAAGAGGUGUCCUCAUGGAUCGUGGUGGUCCCGGUGGAAUGUUCAGAGGUGGCCGUGGUGGAGACAG	0.124
CACAGACAACACGCACCCACACAGACACAGAGGGAAGGAAAUGGGAUGGGGACAGGGUGCACAGCAGGGCGGGGUAGGACCCCAGCCCCU	-1.19
UCAAGUCCUGUGCUACACAUCGUAUGUACCGAAUCGGUUUUGGUUUUGGUUUUGGAAAGUAUUAUGUUACGCCGUUCGGAUCUGCACUUC	-0.736
GUCCUGUGCUACACAUCGUAUGUACCGAAUCGGGUUUUUGGGUUUUUUUGGGAAAGGGAAAGUAUUAUGUUACGCCGUUCGGAUCUGCAC	-0.195
UAACUUUAGAGGAGGAUCUGAUGGAUAUGGCAGUGGACGUGGAUUUGGGGAUGGCUAUAAUGGGUAUGGCGGAGGACCUGGAGGUGGCAA	0.0365
CCUCAAGUCCUGUGCUACACAUCGUAUGUACCGAAUCGGUGGUUUUUGGUGGAAAGUAUUAUGUUACGCCGUUCGGAUCUGCACUUCCAG	0.409
CUCAAGUCCUGUGCUACACAUCGUAUGUACCGAAUCGGCCGGGCCGGCCGGGGAAAGUAUUAUGUUACGCCGUUCGGAUCUGCACUUCCA	0.597
UGAAGGCGCGGCCCUUCCCCGACGGCCUGGCCGAGGACAUCGAUAAAGGCGAGGUGUCCGCCCGUCAGGAGCUCAAGCAGCGGGCGCGCU	0.00216
